Assay results collected from several papers.
Several values in a cell are separate wells, animals, samples, runs or records. Numbers after ± are the reported error.
UniProt P05177, sequence (whole entry, looked up): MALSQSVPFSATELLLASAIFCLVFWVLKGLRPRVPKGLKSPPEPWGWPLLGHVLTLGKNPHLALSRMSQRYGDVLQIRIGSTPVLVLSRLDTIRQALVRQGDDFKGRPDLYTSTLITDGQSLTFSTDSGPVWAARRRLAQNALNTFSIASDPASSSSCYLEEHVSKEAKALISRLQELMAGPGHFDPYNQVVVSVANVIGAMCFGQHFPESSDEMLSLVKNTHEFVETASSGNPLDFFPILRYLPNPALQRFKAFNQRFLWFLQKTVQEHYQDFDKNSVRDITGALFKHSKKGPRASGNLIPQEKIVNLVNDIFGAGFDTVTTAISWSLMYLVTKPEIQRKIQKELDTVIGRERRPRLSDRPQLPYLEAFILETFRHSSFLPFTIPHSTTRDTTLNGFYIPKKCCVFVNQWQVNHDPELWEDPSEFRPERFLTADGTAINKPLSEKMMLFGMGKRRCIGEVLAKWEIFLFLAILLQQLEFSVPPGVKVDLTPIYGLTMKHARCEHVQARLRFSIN
UniProt P02769, sequence (whole entry, looked up): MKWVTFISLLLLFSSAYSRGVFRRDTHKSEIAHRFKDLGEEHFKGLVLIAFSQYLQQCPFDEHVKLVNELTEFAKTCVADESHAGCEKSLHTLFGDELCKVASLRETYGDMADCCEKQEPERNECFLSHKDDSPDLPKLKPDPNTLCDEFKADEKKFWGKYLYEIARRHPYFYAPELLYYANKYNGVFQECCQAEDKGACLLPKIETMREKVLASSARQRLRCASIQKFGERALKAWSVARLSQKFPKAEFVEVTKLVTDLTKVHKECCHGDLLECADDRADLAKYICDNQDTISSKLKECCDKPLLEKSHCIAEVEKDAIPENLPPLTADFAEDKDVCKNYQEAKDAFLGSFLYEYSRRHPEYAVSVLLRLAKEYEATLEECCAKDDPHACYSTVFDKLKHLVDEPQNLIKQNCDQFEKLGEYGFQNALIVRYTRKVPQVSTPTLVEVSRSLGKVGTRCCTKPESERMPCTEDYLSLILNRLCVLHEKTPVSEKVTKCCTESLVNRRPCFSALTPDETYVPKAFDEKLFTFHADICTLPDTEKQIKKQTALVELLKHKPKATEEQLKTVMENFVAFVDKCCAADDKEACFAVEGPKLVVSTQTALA

| Structure (SMILES) | tested on | assay | test system | setting | how to read | quantity | value |
| --- | --- | --- | --- | --- | --- | --- | --- |
| CC(C)OCCOCc1ccc(OCC(O)CN(N=O)C(C)C)cc1 (stereo not drawn) | Salmonella typhimurium | Ames test | TA1537 | 158 µg/plate, 30 % rat S9 | reference: solvent control | revertant fold increase | 0.8 fold |
| Nc1nc(-c2ccccc2C(F)(F)F)nc2[nH]nc(Nc3ccc(Cl)cc3)c12 | HeLa Ohio | – | – | 72 h | – | CC50 | 1.9 µM |
| CNC(=O)C1CCCN(C(=O)C2CC3CCC2N3C(=O)[C@@H]2C[C@@H](O)CN2C(=O)NCc2cccc(Cl)c2F)C1 (mixture of isomers) | Cytochrome P450 1A2 (CYP1A2, Homo sapiens, UniProt P05177) | preincubation without NADPH | human | 0.206 µM | reference: negative control | remaining activity | 90.5% and 92.8% |
| N#C[C@@H]1CC(F)(F)CN1C(=O)CNC(=O)c1ccnc2c(NC(=O)CCOCCOCCOCCOCCOCCOCCNC(=O)[C@H](CCCCNC(=O)CN3CCN(CC(=O)[O-])CCN(CC(=O)[O-])CCN(CC(=O)[O-])CC3)NC(=O)CCCc3ccc(I)cc3)cccc12.[177Lu+3] | U-87 MG tumour model | – | host not given, stomach | 24 h, tumour-bearing | – | tracer uptake | 0.19 %ID/g |
| C=CC(=O)Nc1cc(Nc2nccc(-c3cn(C)c4ccccc34)n2)c(OCC(F)(F)F)nc1N(C)CCN(C)C | human hepatocytes lot HC3-31 | CYP1A2 enzyme activity, inducer | – | 10 µM | reference: omeprazole 100 µM | induction | 39.4% |
| CN(Cc1ccccc1)C(=O)CN1CCN(CC(=O)[O-])CCN(CC(=O)[O-])CC1.[18F-].[Sc+3] | – | – | mouse, brain | intravenous, 1 h | – | tracer uptake | 0.06 %ID/g |
| Nc1nc(-c2ccncc2)nc2[nH]nc(Nc3ccc(F)cc3)c12 | HeLa Ohio | – | – | 72 h | – | CC50 | > 156 µM |
| COc1cccc(OC)c1-c1cc(C(=O)NC2(C(=O)O)C3CC4CC(C3)CC2C4)nn1-c1ccc(C(=O)N(C)CCOCCOCCN(C)C(=O)[C@H](CCCCNC(=O)[C@H](CC(C)C)NC(=O)C2OC2C(=O)O)NC(=O)CN2CCN(CC(=O)[O-])CCN(CC(=O)[O-])CCN(CC(=O)[O-])CC2)cc1C(C)C.[177Lu+3] (mixture of isomers) | HT-29 tumour model | – | host not given, blood | 4 h, tumour-bearing | – | tracer uptake | 3.3 %ID/g |
| CN(Cc1ccccc1)C(=O)CN1CCN(CC(=O)[O-])CCN(CC(=O)N(C)Cc2ccccc2)CC1.[18F-].[Sc+3] | – | – | mouse, lung | intravenous, 1 h | – | tracer uptake | 0.18 %ID/g |
| N#C[C@@H]1CC(F)(F)CN1C(=O)CNC(=O)c1ccnc2c(NC(=O)[C@@H](N)CCCCNC(=O)CCOCCOCCOCCOCCOCCOCCNC(=O)CN3CCN(CC(=O)[O-])CCN(CC(=O)[O-])CCN(CC(=O)[O-])CC3)cccc12.[177Lu+3] | U-87 MG tumour model | – | host not given, muscle | 4 h, tumour-bearing | – | tracer uptake | 0.2 %ID/g |
| N#C[C@@H]1CCCN1C(=O)CNC(=O)c1ccnc2ccc(OCCCN3CCN(C(=O)CCc4ccc5c(c4)CN4CCN(Cc6cc(CCC(=O)O)ccc6O)CC(=O)[O][Al-]([18F])([O]C(=O)C4)[O]5)CC3)cc12 (stereo partly drawn) | U-87 MG tumour model | – | host not given, pancreas | 1 h, tumour-bearing | – | tracer uptake | 1.88 %ID/g |
| C=C(NC(=O)c1csc(-c2nc3c(cc2O)-c2nc(cs2)C(=O)NC(C(C)O)C(=O)NC(=C(C)OC)c2nc(cs2)C(=O)NC2c4nc(cs4)C(=O)NC(COC(=O)c4c5c6c(cccc6n4O)COC(=O)C(OC4CC(C)(O)C(N(C)C)C(C)O4)C2OC5)c2nc-3cs2)n1)C(N)=O (stereo not drawn) | – | – | female cynomolgus monkey, plasma | intravenous, 9 mg/kg, single dose, infusion | – | AUC(0-inf) | 42600 ng·h/mL |
| O=C1C2CC3CC1CC(C(=O)N1CCN(c4ccc([N+](=O)[O-])c5ncccc45)CC1)(C3)C2 | Escherichia coli | Ames test | WP2 uvrA pKM101 | 0.31 µg/well, with S9 | reference: vehicle | revertant fold increase | 1 |
| OC(Cc1cc(-c2ccc(C(O)C(F)(F)F)s2)sc1-c1ccc(-c2sc(-c3ccc(C(O)C(F)(F)F)s3)cc2CC(O)C(F)(F)F)s1)C(F)(F)F (stereo not drawn) | primary human fetal neurons | LC-MS/MS | – | 4 µM, 120 min, replicate 1 | – | amount in cell extract | 1.78 nmol and 1.56 nmol and 2 nmol |
| CN(Cc1ccccc1)C(=O)CN1CCN(CC(=O)[O-])CCN(Cc2cccc(C(=O)[O-])n2)CC1.[44Sc+3] | – | – | mouse, spleen | intravenous, 1 h | – | tracer uptake | 0.47 %ID/g |
| CC(C)Cc1ccc(C(C)C(=O)N[C@@H](CCCCNC(=O)CCOCCOCCOCCOCCOCCOCCNC(=O)CN2CCN(CC(=O)[O-])CCN(CC(=O)[O-])CCN(CC(=O)[O-])CC2)C(=O)Nc2cccc3c(C(=O)NCC(=O)N4CC(F)(F)C[C@H]4C#N)ccnc23)cc1.[177Lu+3] (stereo partly drawn) | U-87 MG tumour model | – | host not given, pancreas | 48 h, tumour-bearing | – | tracer uptake | 0.37 %ID/g |
| Nc1nc(-c2ccccc2)nc2[nH]nc(Nc3ccc(OC(F)(F)F)cc3)c12 | HeLa Ohio | – | – | 72 h | – | CC50 | > 129 µM |
| O=C(Nc1cnccc1-c1ccc([18F])nc1)c1ccnc(NC(=O)C2CC2)c1 | – | – | FVB/NJ mouse, both sexes, liver | intravenous, 40 min, together with: tariquidar 15 mg/kg iv | – | SUV | 8.67 |
| N#C[C@@H]1CC(F)(F)CN1C(=O)CNC(=O)c1ccnc2c(NC(=O)[C@H](CCCCNC(=O)CCOCCOCCOCCOCCOCCOCCNC(=O)CN3CCN(CC(=O)[O-])CCN(CC(=O)[O-])CCN(CC(=O)[O-])CC3)NC(=O)CCCc3ccc(I)cc3)cccc12.[177Lu+3] | U-87 MG tumour model | – | host not given, tumour | 72 h, tumour-bearing | – | tracer uptake | 2.88 %ID/g |
| CN(C)c1ccc2c(c1)[Si](C)(C)c1cc(N(C)C)ccc1C21OC(=O)c2c(C(=O)O)cccc21 | Albumin (ALB, Bos taurus, UniProt P02769) | binding, fluorescence titration | PBS | – | – | Kd | 29 ± 3 µM |
| Oc1nc(-c2ccccc2)nc2[nH]nc(Nc3cccc(F)c3)c12 | HeLa Ohio | – | – | 72 h | – | CC50 | > 156 µM |
| N#C[C@@H]1CCCN1C(=O)CNC(=O)c1ccnc2ccc(OCCCN3CCN(C(=O)CCc4ccc5c(c4)CN4CCN6CC(=O)[O][68Ga-]([O]C(=O)C4)([O]5)[O]c4ccc(CCC(=O)N5CCN(CCCOc7ccc8nccc(C(=O)NCC(=O)N9CCC[C@H]9C#N)c8c7)CC5)cc4C6)CC3)cc12 | U-87 MG tumour model | – | host not given, liver | 2 h, tumour-bearing | – | tracer uptake | 2.94 %ID/g |
| CCN(CC)c1nc(-c2ccccc2)nc2[nH]nc(Nc3ccc(F)cc3)c12 | HeLa Ohio | – | – | 72 h | – | CC50 | > 133 µM |
| COc1cccc(OC)c1-c1cc(C(=O)NC2(C(=O)O)C3CC4CC(C3)CC2C4)nn1-c1ccc(C(=O)N(C)CCCN(C)CCCN(C)C(=O)[C@H](CCCCNC(=O)[C@H](CC(C)C)NC(=O)C2OC2C(=O)O)NC(=O)CN2CCN(CC(=O)[O-])CCN(CC(=O)[O-])CCN(CC(=O)[O-])CC2)cc1C(C)C.[177Lu+3] (mixture of isomers) | HT-29 tumour model | – | host not given, bone | 24 h, tumour-bearing | – | tracer uptake | 1.1 %ID/g |
| CNc1nc(-c2ccccc2)nc2[nH]nc(Nc3ccc(F)cc3)c12 | HeLa Ohio | – | – | 72 h | – | CC50 | 70.9 µM |
| O=C([O-])CN1CCN(CC(=O)[O-])CCN(Cc2cccc(C(=O)[O-])n2)CC1.[44Sc+3] | – | – | mouse, bone | intravenous, 1 h | – | tracer uptake | 1.17 %ID/g |
| Nc1nc(-c2ccccc2)nc2[nH]nc(Nc3ccc(Cl)cc3)c12 | HeLa Ohio | – | – | 72 h | – | CC50 | > 594 µM |
| O=C1NC2(CC2)COc2ncc(F)cc2[C@H]2COCCN2c2ccn3ncc1c3n2 | Salmonella typhimurium | Ames test | TA98 | 500 µg/plate, 48 h, together with: rat liver S9 | – | revertant colonies | 16 ± 1 revertants/plate |
| Nc1nc(-c2ccccc2)nc2[nH]nc(Nc3ccccc3)c12 | HeLa Ohio | – | – | 72 h | – | CC50 | > 122 µM |
| CCN(CC)CC#CCNc1ccnc2cc(Cl)ccc12 | Salmonella typhimurium | mini-Ames test | TA102 | 500.0 µg/well, without S9 | – | revertants | 72 revertants/well and 69 revertants/well |

For quick reference, copied from above:
| Structure (SMILES) | tested on | assay | test system | setting | how to read | quantity | value |
| --- | --- | --- | --- | --- | --- | --- | --- |
| N#C[C@@H]1CC(F)(F)CN1C(=O)CNC(=O)c1ccnc2c(NC(=O)[C@H](CCCCNC(=O)CCOCCOCCOCCOCCOCCOCCNC(=O)CN3CCN(CC(=O)[O-])CCN(CC(=O)[O-])CCN(CC(=O)[O-])CC3)NC(=O)CCCc3ccc(I)cc3)cccc12.[177Lu+3] | U-87 MG tumour model | – | host not given, tumour | 72 h, tumour-bearing | – | tracer uptake | 2.88 %ID/g |
| Nc1nc(-c2ccccc2)nc2[nH]nc(Nc3ccc(Cl)cc3)c12 | HeLa Ohio | – | – | 72 h | – | CC50 | > 594 µM |
| N#C[C@@H]1CC(F)(F)CN1C(=O)CNC(=O)c1ccnc2c(NC(=O)CCOCCOCCOCCOCCOCCOCCNC(=O)[C@H](CCCCNC(=O)CN3CCN(CC(=O)[O-])CCN(CC(=O)[O-])CCN(CC(=O)[O-])CC3)NC(=O)CCCc3ccc(I)cc3)cccc12.[177Lu+3] | U-87 MG tumour model | – | host not given, stomach | 24 h, tumour-bearing | – | tracer uptake | 0.19 %ID/g |
| CC(C)Cc1ccc(C(C)C(=O)N[C@@H](CCCCNC(=O)CCOCCOCCOCCOCCOCCOCCNC(=O)CN2CCN(CC(=O)[O-])CCN(CC(=O)[O-])CCN(CC(=O)[O-])CC2)C(=O)Nc2cccc3c(C(=O)NCC(=O)N4CC(F)(F)C[C@H]4C#N)ccnc23)cc1.[177Lu+3] (stereo partly drawn) | U-87 MG tumour model | – | host not given, pancreas | 48 h, tumour-bearing | – | tracer uptake | 0.37 %ID/g |
